Measured values from different studies.

COc1cc(CNC(=O)C[C@H](C)CCC=C(C)C)ccc1OCc1cn(-c2ccc(F)cc2)nn1 — growth percent (MDA-MB-435 melanoma cells; SRB; 10 µM, 48 h): 104%
CC/C=C\C/C=C\C/C=C\C/C=C\C/C=C\C/C=C\CCC(=O)Nc1ccn(C2OC(CO)C(O)C2(F)F)c(=O)n1 (centres unmarked) — GI50 (OVCAR-5; cell growth or viability, SRB): 82.1 nM
CON=C(C(O)C(C)O)C(OC)C1Cc2cc3cc(OC4CC(OC5CC(O)C(O)C(C)O5)C(O)C(C)O4)c(C)c(O)c3c(O)c2C(=O)C1OC1CC(OC2CC(OC3CC(C)(O)C(O)C(C)O3)C(O)C(C)O2)C(O)C(C)O1 (centres unmarked) — GI50 (TC-32; cell growth; 72 h): 86 nM
COc1cc(CNC(=O)C[C@H](C)CCC=C(C)C)ccc1O — growth percent (MDA-MB-435 melanoma cells; SRB; 10 µM, 48 h): 102%
COC(C(=NOCC(=O)O)C(O)C(C)O)C1Cc2cc3cc(OC4CC(OC5CC(O)C(O)C(C)O5)C(O)C(C)O4)c(C)c(O)c3c(O)c2C(=O)C1OC1CC(OC2CC(OC3CC(C)(O)C(O)C(C)O3)C(O)C(C)O2)C(O)C(C)O1 (centres unmarked) — GI50 (TC-32; cell growth; 72 h): 1150 nM
CC(=C(c1ccc(O)cc1)c1ccc(Cl)cc1)c1ccc(Cl)cc1 — GI50 (OVCAR-5; cell growth or viability): 2900 nM
COC(C(=NO)C(O)C(C)O)C1Cc2cc3cc(OC4CC(OC5CC(O)C(O)C(C)O5)C(O)C(C)O4)c(C)c(O)c3c(O)c2C(=O)C1OC1CC(OC2CC(OC3CC(C)(O)C(O)C(C)O3)C(O)C(C)O2)C(O)C(C)O1 (centres unmarked) — GI50 (TC-32; cell growth; 72 h): 231 nM
Cc1ccc(NC(=O)c2cccc(C(F)(F)F)c2)cc1N1Cc2cnc(Nc3ccccc3)nc2N(C)C1=O — GI50 (Huh-7; cell growth or viability, ATP luminescence; 72 h): 66 nM
CCC(=C(c1ccc(Cl)cc1)c1ccc(OCCCN(C)C)cc1)c1ccc(OC)cc1 — GI50 (OVCAR-5; cell growth or viability): 6540 nM
CCN1C(=O)N(c2cc(NC(=O)c3cccc(C(F)(F)F)c3)ccc2C)Cc2cnc(Nc3ccc(C)nc3)nc21 — GI50 (Hep3B; cell growth or viability, ATP luminescence; 72 h): 652 nM
O=c1[nH]c(N2CCC3(CC2)CN(CCO)c2cc(F)cc(F)c23)nc2c1CCCC2 — GI50 (COLO 320DM; cell growth or viability, MTT; 5 days): 449 nM
COC(C(=NOCC(=O)NCCc1c[nH]c2ccccc12)C(O)C(C)O)C1Cc2cc3cc(OC4CC(OC5CC(O)C(O)C(C)O5)C(O)C(C)O4)c(C)c(O)c3c(O)c2C(=O)C1OC1CC(OC2CC(OC3CC(C)(O)C(O)C(C)O3)C(O)C(C)O2)C(O)C(C)O1 (centres unmarked) — GI50 (TC-32; cell growth; 72 h): 189 nM
Cc1ccc(Nc2ncc3c(n2)N(C)C(=O)N(c2cc(NC(=O)c4ccc(N5CCN(C)CC5)c(C(F)(F)F)c4)ccc2C)C3)cn1 — GI50 (Huh-7; cell growth or viability, ATP luminescence; 72 h): 70 nM
CC(C)C[C@H](NC(=O)[C@H](CO)NC(=O)[C@H](CCCNC(=N)N)NC(=O)[C@H](CC(=O)O)NC(=O)[C@H](CCC(=O)O)NC(=O)[C@H](C)NC(=O)[C@@H]1CCCN1C(=O)[C@H](C)NC(=O)[C@H](CCC(=O)O)NC(=O)[C@@H]1CCCN1C(=O)[C@@H]1CCCN1)C(N)=O — DOPAC level reduction (dopamine system; rhesus monkey, contralateral putamen; intranasal, dose not given, repeated dose escalation; reference: vehicle): 59%
CCC(=O)N(C)c1ccc(Cl)c(Cl)c1 — fold activation (CAR3 constitutive androstane receptor, human; reporter gene, agonist; 32 µM; reference: vehicle): 0.06 fold
Cc1ccc(Nc2ncc3c(n2)N(C2CC2)C(=O)N(c2cc(NC(=O)c4cccc(C(F)(F)F)c4)ccc2C)C3)cn1 — GI50 (Hep3B; cell growth or viability, ATP luminescence; 72 h): 1070 nM
Cn1cc(-c2cc(N3CCCCS3(=O)=O)ccc2N[C@H]2CC[C@H](C)CC2)c2cc[nH]c2c1=O (stereo in doubt) — GI50 (CAL-27; cell growth or viability, CCK-8; 72 h): 120 nM

Excerpt of the above:
COC(C(=NO)C(O)C(C)O)C1Cc2cc3cc(OC4CC(OC5CC(O)C(O)C(C)O5)C(O)C(C)O4)c(C)c(O)c3c(O)c2C(=O)C1OC1CC(OC2CC(OC3CC(C)(O)C(O)C(C)O3)C(O)C(C)O2)C(O)C(C)O1 (centres unmarked) — GI50 (TC-32; cell growth; 72 h): 231 nM
Cc1ccc(NC(=O)c2cccc(C(F)(F)F)c2)cc1N1Cc2cnc(Nc3ccccc3)nc2N(C)C1=O — GI50 (Huh-7; cell growth or viability, ATP luminescence; 72 h): 66 nM
